# Measured values from different studies.
# Several values in a cell are separate wells, animals, samples, runs or records.
Structure (SMILES),cell line,test,test system,conditions,scale,endpoint,result
CCN(CC)CC(=O)Nc1cccc(-n2cc(-c3ccc4ccc(-c5cn(-c6cccc(NC(=O)CN(CC)CC)c6)nn5)cc4c3)nn2)c1,RCC4,"PCR angiogenesis array, measured: IL6",,"5 x IC50, 4 h, normoxia",baseline: untreated,fold regulation,-1.29
O=C(C[Se]C(=O)c1ccc2ccccc2n1)Nc1cccc(C(F)(F)F)c1,NCI60 renal subpanel,"cell growth, inhibitor",,five-dose,,GI50,1910 nM
O=C(NCc1ccc(OC(F)(F)F)cc1)[C@H]1CCCN(c2ncnc3[nH]c(-c4ccccc4)cc23)C1,NCI-H2228,"cell growth or viability, MTT",,"0.008 µg/mL, 72 h",,inhibition,1.76%
Cn1c(=O)n(C2CCC(=O)NC2=O)c2ccc(C3CCN(CC(=O)Nc4cccc(CS(=O)(=O)N5CC[C@H](Nc6cccc(-c7sc(C(=O)O)c(OCC(=O)O)c7Cl)c6)CC5(C)C)c4)CC3)cc21 (stereo partly drawn),B16-F10,"HTRF, measured: phospho-STAT1 Tyr701",,"0.041 µM, added: IFN-γ",baseline: DMSO,fold change,3.99 and 4.34 and 3.89 and 4.33 and 4.03 and 4.31
O=C(NCc1ccc(OC(F)(F)F)cc1)[C@H]1CCCN(c2ncnc3[nH]c(-c4cccnc4)cc23)C1,NCI-H2228,"cell growth or viability, MTT",,"0.04 µg/mL, 72 h",,inhibition,53.2%
CCN(C(=O)c1cc(F)ccc1Oc1nncnc1N1CCC2(C1)CN([C@H](CCCN(C)CCOC)C(C)C)C2)C(C)C,A204,,muscle,72 h,,GI50,> 10000 nM
Cn1ncc2cc(-c3cncc(Cl)c3N3CCC4(CCNC4=O)CC3)ccc21,LS174T,"gene expression, microarray, measured: DIO2 mRNA",,"concentration not given, 4 h",baseline: untreated cells,log2 fold change,-1.49
COC(=O)c1cc(NC2=NC(=O)C(=Cc3ccc(N(C)C)cc3)S2)ccc1OC(C)=O,MCF7,measured: RNF111 mRNA,,"0.81 µM (IC50), 24 h",baseline: DMSO,fold change,0.533
Cc1ncsc1-c1ccc(C(C)NC(=O)C2CC(O)CN2C(=O)C(NC(=O)CCCCCCCCCCN2CCCC(Nc3ncc(Cl)c(Nc4ccccc4S(=O)(=O)C(C)C)n3)C2)C(C)(C)C)cc1 (stereo not drawn),22Rv1,"RNA-seq, measured: ZNF689 mRNA",,concentration not given,baseline: DMSO,log2 fold change,-1.61
Cc1cc(NC2CCN(C)CC2)ccc1-c1cc2c(N3CCC[C@H](C(=O)N4CCCCC4)C3)ncnc2[nH]1,NCI-H2228,"cell growth or viability, MTT",,"0.2 µg/mL, 72 h",,inhibition,-2.51%
CN1CCCNC(=O)c2cccc(c2)C(=O)NCCCN(C)CCCNc2cccc3c2C(=O)c2cccc(c2C3=O)NCCC1,SAS,"RNA-Seq, measured: ZFYVE27 mRNA",,"1 µM, 6 h",baseline: untreated cells,log2 fold change,-2.24
COc1ccc(-c2cc3c(N4CCC[C@H](C(=O)NCc5ccc(OC(F)(F)F)cc5)C4)ncnc3[nH]2)cn1,NCI-H2228,"cell growth or viability, MTT",,"0.2 µg/mL, 72 h",,inhibition,61.9%
CC(C)c1ccc(N(C)c2ccc3c(c2)OCC[C@H]3CNc2cnccc2C(=O)O)cc1,HuH-1,"cell growth or viability, ATP luminescence",,7 days,,IC50,11.8 nM
O=C(NCc1ccc(OC(F)(F)F)cc1)[C@H]1CCCN(c2ncnc3[nH]c(-c4ccc(C(F)(F)F)cc4)cc23)C1,NCI-H2228,"cell growth or viability, MTT",,"1 µg/mL, 72 h",,inhibition,31.7%
CNS(=O)(=O)Nc1nccc(Cc2c(C)c3ccc(Oc4ncccc4F)cc3oc2=O)c1F,SU-DHL10,cell viability,,7 days,,IC50,1.34 nM
